Assay results collected from several papers.
Each line is one published result; not all experiments were run side by side.
rep main protease: Replicase polyprotein 1ab, main protease (rep, Severe acute respiratory syndrome coronavirus 2, UniProt P0DTD1)

CPFGEVFNATRFASV  responding donors (human CD4 T cells; AIM; peptide): 9%
O=c1cc(-c2ccccc2)oc2c(O)c(O)ccc12  Kd (Spike glycoprotein (Severe acute respiratory syndrome coronavirus 2, UniProt P0DTC2); binding, BLI): 39.7 µM
CC[C@H](C)[C@H](NC(=O)[C@H](CC(C)C)NC(=O)[C@H](Cc1c[nH]c2ccccc12)NC(=O)[C@H](CCC(N)=O)NC(=O)[C@@H](NC(=O)[C@H](Cc1ccccc1)NC(=O)[C@H](C)NC(=O)[C@H](CCCCNC(=O)COCCOCCNC(=O)COCCOCCNC(=O)CC[C@H](NC(=O)CCCCCCCCCCCCCCCCCCC(=O)O)C(=O)O)NC(=O)[C@H](CCC(N)=O)NC(=O)[C@H](C)NC(=O)[C@@H](NC(=O)[C@H](CCCCN)NC(=O)[C@H](CC(=O)O)NC(=O)[C@H](CC(C)C)NC(=O)C(C)(C)NC(=O)[C@@H](NC(=O)[C@H](CO)NC(=O)[C@H](Cc1ccc(O)cc1)NC(=O)[C@H](CC(=O)O)NC(=O)[C@H](CO)NC(=O)[C@@H](NC(=O)[C@H](Cc1ccccc1)NC(=O)[C@@H](NC(=O)CNC(=O)[C@H](CCC(=O)O)NC(=O)C(C)(C)NC(=O)[C@@H](N)Cc1ccc(O)cc1)[C@@H](C)O)[C@@H](C)O)[C@@H](C)CC)[C@@H](C)CC)C(C)C)C(=O)N[C@@H](C)C(=O)NCC(=O)NCC(=O)N1CCC[C@H]1C(=O)N[C@@H](CO)C(=O)N[C@@H](CO)C(=O)NCC(=O)N[C@@H](C)C(=O)N1CCC[C@H]1C(=O)N1CCC[C@H]1C(=O)N1CCC[C@H]1C(=O)N[C@@H](CO)C(N)=O  adverse events (injection site pain) (healthy subjects, single ascending dose; 0.5 mg): 25%
Nc1ncnc2c([C@@H]3N[C@H](CO)[C@@H](O)[C@H]3O)c[nH]c12  infected cells (Marburg virus; viral replication, antibody staining; HeLa, Musoke; 12.5 µM, 1 h): 0.8%
Cn1cnc(Cn2c(=O)[nH]/c(=N\c3cc4cn(C)nc4cc3Cl)n(Cc3cc(F)c(F)cc3F)c2=O)n1  AUC(0-inf) (human, normal renal function; oral, 375 mg, single dose, geometric mean): 996 µg·h/mL
O=c1oc(Cl)c(Cl)c2ccccc12  inhibition (rep main protease; reporter gene (mKate2), inhibitor; 20 µM): 0.169%
NC(=O)c1ccc(/C=C/C(=O)N2CCC[C@@]3(CCN(C(=O)[C@@H]4CC(=O)NC(=O)N4)C3)C2)cc1  inhibition (rep main protease; enzyme activity; 5 µM, mean of runs): 14.9%
SFLGRYMSALNHTKK  responding donors (human CD4 T cells; AIM; peptide): 9%

For quick reference, copied from above:
CC[C@H](C)[C@H](NC(=O)[C@H](CC(C)C)NC(=O)[C@H](Cc1c[nH]c2ccccc12)NC(=O)[C@H](CCC(N)=O)NC(=O)[C@@H](NC(=O)[C@H](Cc1ccccc1)NC(=O)[C@H](C)NC(=O)[C@H](CCCCNC(=O)COCCOCCNC(=O)COCCOCCNC(=O)CC[C@H](NC(=O)CCCCCCCCCCCCCCCCCCC(=O)O)C(=O)O)NC(=O)[C@H](CCC(N)=O)NC(=O)[C@H](C)NC(=O)[C@@H](NC(=O)[C@H](CCCCN)NC(=O)[C@H](CC(=O)O)NC(=O)[C@H](CC(C)C)NC(=O)C(C)(C)NC(=O)[C@@H](NC(=O)[C@H](CO)NC(=O)[C@H](Cc1ccc(O)cc1)NC(=O)[C@H](CC(=O)O)NC(=O)[C@H](CO)NC(=O)[C@@H](NC(=O)[C@H](Cc1ccccc1)NC(=O)[C@@H](NC(=O)CNC(=O)[C@H](CCC(=O)O)NC(=O)C(C)(C)NC(=O)[C@@H](N)Cc1ccc(O)cc1)[C@@H](C)O)[C@@H](C)O)[C@@H](C)CC)[C@@H](C)CC)C(C)C)C(=O)N[C@@H](C)C(=O)NCC(=O)NCC(=O)N1CCC[C@H]1C(=O)N[C@@H](CO)C(=O)N[C@@H](CO)C(=O)NCC(=O)N[C@@H](C)C(=O)N1CCC[C@H]1C(=O)N1CCC[C@H]1C(=O)N1CCC[C@H]1C(=O)N[C@@H](CO)C(N)=O  adverse events (injection site pain) (healthy subjects, single ascending dose; 0.5 mg): 25%
